Results from different studies.
Lines come from different studies, so protocols differ. Numbers after ± are the reported error.
lasR: Transcriptional activator protein LasR (lasR, Pseudomonas aeruginosa, UniProt P25084)
Sequence of UniProt P25084 (whole entry, looked up): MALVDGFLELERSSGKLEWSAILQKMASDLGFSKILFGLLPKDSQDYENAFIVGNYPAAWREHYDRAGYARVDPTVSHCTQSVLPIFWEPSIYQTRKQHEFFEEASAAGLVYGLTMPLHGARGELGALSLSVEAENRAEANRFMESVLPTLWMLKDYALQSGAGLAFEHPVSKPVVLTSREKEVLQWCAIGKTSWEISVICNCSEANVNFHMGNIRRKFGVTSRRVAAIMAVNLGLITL
APP: Amyloid-beta precursor protein (APP, Homo sapiens, UniProt P05067)
Sequence of UniProt P05067 (whole entry, looked up): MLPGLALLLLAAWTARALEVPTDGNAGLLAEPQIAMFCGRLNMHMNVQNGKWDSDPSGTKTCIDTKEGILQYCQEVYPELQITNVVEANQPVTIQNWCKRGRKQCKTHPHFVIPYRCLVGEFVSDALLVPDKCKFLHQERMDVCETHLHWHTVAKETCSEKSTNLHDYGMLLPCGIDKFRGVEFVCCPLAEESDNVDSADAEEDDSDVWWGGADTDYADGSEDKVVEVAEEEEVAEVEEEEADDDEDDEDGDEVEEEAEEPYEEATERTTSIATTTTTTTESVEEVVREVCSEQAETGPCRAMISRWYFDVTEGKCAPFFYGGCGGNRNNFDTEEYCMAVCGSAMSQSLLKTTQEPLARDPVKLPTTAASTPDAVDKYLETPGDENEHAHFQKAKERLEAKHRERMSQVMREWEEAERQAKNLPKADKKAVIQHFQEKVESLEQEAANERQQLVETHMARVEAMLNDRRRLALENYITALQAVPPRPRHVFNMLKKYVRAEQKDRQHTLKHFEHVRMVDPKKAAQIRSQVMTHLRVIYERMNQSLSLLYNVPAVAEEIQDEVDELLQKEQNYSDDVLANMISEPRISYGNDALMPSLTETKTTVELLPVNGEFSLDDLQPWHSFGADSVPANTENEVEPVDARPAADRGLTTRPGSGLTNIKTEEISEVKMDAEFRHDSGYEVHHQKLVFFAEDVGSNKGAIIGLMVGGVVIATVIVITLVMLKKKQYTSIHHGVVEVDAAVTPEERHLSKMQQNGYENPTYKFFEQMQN
Sequence of UniProt A0A024B7W1 (whole entry, looked up): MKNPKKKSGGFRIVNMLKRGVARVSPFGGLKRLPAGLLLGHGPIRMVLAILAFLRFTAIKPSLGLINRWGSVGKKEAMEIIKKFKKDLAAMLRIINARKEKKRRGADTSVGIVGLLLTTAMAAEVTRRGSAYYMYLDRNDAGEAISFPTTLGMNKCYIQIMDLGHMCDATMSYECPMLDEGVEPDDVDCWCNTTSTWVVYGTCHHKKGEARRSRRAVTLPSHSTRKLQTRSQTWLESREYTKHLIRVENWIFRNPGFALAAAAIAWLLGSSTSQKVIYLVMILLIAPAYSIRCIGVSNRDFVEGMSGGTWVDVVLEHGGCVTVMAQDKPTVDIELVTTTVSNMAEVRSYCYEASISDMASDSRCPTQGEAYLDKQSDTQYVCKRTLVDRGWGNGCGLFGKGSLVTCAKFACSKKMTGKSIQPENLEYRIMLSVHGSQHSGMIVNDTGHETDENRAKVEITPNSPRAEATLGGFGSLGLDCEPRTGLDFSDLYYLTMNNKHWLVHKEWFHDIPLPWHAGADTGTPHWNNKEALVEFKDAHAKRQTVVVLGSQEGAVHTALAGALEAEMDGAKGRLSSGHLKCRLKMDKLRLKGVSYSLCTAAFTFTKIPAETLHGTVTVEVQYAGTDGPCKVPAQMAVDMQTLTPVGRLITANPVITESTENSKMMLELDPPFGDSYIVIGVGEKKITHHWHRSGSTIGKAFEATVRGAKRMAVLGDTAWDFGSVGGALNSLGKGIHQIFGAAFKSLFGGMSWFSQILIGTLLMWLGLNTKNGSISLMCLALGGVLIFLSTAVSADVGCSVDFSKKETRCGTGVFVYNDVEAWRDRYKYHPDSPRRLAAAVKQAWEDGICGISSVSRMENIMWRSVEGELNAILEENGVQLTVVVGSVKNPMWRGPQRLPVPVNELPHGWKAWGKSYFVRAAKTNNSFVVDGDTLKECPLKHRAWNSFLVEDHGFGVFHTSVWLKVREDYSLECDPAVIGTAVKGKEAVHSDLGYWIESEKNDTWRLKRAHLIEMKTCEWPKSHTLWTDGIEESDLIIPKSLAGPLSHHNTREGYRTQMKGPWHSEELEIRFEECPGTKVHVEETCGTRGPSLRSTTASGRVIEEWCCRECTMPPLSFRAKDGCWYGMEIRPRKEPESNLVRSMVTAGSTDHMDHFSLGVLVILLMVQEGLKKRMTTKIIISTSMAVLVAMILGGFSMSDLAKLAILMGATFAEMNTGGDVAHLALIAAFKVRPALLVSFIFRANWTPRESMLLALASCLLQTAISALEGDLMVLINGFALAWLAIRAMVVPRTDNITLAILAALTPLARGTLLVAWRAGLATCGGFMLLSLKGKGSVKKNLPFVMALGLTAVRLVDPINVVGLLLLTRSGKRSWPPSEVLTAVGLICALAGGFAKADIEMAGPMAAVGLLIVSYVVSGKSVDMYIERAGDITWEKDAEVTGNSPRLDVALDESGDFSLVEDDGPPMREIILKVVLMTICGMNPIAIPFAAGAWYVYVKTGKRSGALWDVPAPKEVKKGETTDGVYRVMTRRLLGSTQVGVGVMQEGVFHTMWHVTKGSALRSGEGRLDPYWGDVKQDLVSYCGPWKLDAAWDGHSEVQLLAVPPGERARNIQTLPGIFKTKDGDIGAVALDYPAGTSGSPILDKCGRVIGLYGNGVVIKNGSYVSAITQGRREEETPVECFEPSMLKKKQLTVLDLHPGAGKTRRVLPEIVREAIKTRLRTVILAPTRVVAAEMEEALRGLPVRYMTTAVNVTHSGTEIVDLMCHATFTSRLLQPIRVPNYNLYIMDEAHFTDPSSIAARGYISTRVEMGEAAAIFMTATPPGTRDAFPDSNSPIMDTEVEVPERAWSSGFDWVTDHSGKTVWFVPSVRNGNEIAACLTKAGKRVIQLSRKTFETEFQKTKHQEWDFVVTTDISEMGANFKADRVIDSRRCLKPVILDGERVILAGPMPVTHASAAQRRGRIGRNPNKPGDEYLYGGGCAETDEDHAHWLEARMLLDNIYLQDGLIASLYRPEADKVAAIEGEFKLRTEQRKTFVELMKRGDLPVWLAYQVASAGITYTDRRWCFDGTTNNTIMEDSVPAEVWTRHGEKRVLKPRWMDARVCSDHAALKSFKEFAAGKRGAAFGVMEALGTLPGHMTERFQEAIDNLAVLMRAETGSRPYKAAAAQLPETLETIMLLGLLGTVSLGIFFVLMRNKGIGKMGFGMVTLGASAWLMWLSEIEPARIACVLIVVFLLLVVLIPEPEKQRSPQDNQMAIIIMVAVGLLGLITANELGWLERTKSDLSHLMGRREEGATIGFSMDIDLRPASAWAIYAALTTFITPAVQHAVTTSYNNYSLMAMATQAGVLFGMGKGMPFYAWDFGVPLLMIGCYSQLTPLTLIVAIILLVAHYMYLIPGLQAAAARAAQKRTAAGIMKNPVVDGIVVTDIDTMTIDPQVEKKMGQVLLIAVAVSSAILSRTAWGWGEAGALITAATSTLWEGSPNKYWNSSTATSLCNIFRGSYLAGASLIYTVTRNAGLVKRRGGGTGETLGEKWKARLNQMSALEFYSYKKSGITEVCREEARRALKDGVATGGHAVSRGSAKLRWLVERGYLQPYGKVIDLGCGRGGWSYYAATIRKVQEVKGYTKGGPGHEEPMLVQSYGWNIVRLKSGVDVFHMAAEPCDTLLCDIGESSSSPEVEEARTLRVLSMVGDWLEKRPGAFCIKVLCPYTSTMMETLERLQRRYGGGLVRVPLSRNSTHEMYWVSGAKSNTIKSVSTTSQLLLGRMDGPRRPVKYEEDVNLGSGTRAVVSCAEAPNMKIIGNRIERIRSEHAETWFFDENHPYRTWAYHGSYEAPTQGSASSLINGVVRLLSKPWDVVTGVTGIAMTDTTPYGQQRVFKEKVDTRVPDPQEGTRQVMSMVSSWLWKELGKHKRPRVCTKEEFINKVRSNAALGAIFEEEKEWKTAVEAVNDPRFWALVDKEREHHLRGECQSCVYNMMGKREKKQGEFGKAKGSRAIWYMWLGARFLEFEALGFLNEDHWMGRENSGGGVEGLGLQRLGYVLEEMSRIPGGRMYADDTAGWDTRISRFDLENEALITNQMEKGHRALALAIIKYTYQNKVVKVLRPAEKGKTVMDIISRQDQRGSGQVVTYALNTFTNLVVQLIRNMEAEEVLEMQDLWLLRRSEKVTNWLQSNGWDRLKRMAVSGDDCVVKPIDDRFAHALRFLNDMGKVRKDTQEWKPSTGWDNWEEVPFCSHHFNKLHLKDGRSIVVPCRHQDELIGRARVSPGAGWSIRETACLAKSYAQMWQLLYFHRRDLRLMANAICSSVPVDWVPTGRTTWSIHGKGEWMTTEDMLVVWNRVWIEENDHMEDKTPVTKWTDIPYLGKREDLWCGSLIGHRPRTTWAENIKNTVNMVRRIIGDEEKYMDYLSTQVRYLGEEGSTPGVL
Sequence of UniProt Q0QF01 (whole entry, looked up): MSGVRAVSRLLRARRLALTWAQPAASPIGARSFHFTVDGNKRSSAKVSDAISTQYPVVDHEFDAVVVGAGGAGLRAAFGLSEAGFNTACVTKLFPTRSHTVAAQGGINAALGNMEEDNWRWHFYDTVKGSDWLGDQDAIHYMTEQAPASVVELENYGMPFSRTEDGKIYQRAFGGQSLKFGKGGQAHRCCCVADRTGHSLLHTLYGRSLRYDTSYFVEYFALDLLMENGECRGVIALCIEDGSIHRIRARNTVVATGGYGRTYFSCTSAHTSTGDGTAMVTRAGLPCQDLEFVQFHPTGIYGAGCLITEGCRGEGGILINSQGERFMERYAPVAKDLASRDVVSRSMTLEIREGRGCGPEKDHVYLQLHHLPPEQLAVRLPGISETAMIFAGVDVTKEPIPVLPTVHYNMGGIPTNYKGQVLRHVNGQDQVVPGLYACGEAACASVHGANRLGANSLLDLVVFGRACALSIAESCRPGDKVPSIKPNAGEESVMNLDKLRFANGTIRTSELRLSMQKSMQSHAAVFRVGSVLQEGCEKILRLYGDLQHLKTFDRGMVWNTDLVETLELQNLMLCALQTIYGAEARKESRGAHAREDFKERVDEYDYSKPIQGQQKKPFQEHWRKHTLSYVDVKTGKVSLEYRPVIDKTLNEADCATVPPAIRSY

SMILES	target	assay	test system	conditions	scale	inhibition
O=C(C[P+]([Au-][Cl])(c1ccccc1)c1ccccc1)[O][Ti+2][O]C(=O)C[P+]([Au-][Cl])(c1ccccc1)c1ccccc1.c1cc[cH-]c1.c1cc[cH-]c1	AKT3 (Homo sapiens, UniProt Q9Y243)	kinase activity		10 µM		≥ 50%
O=C(Cn1cc(-c2ccccc2)nn1)N[C@H]1CCOC1=O	lasR	reporter gene, antagonist		100 µM, with: OdDHL 10 nM		56%
C[C@@H](O)[C@H](NC(=O)[C@H](CCCCN)NC(=O)[C@H](Cc1c[nH]c2ccccc12)NC(=O)CN)C(=O)N[C@@H](CCCNC(=N)N)C(=O)NC(C)(C)C(=O)N[C@@H](CCCNC(=N)N)C(=O)NC(C)(C)C(=O)N[C@H](C(=O)N[C@@H](CO)C(=O)N[C@@H](Cc1c[nH]cn1)C(=O)N[C@@H](Cc1ccc(O)cc1)C(=O)NCC(=O)O)[C@@H](C)O	Integrin alpha-2, I domain (Homo sapiens, UniProt P17301)	binding to collagen I		up to 1×100 nM	maximal	30%
CC(=O)NC(Cc1ccc(Br)c(Cl)c1)C(=O)N[C@@H](C)C(=O)N1CCC[C@H]1C(=O)N1CCC[C@H]1C(=O)N[C@@H](CCC(=O)O)C(=O)N[C@@H](Cc1c[nH]cn1)C(=O)N[C@@H](CO)C(=O)N[C@H](C(=O)N[C@@H](C)C(N)=O)[C@@H](C)OP(=O)(O)O (some centres unmarked)	PRKACA (Homo sapiens, UniProt P17612)	enzyme activity, inhibitor		10 µM		0.79%
O=C(O[C@@H]1Cc2c(O)cc(O)cc2O[C@@H]1c1cc(O)c(O)c(O)c1)c1cc(O)c(O)c(O)c1	Genome polyprotein, protease (ZIKV, UniProt A0A024B7W1)	enzyme activity, inhibitor, FRET		100 µM, pH 7		> 40%
CC1N=C(c2ccccc2F)c2cc(Nc3ccccc3C(F)(F)F)ccc2NC1=O (centres unmarked)	ADRA2A (Homo sapiens, UniProt P08913)	ligand displacement, radioligand		10 µM		24%
Cc1ccc(-c2nc3ccc(/N=N/c4ccc([N+](=O)[O-])cc4)cc3c(-c3ccccc3)c2I)cc1	APP	fibril formation, ThT fluorescence	PBS	concentration not given, 24 h, 37 °C, with: Aβ42 25 µM		74.4 ± 2%
O=C(Cn1cc(-c2cccc(-c3cn(CC(=O)N[C@H]4CCOC4=O)nn3)c2)nn1)N[C@H]1CCOC1=O	lasR	reporter gene, antagonist		100 µM, with: OdDHL 10 nM		6%
O=C(Nc1ccccc1Nc1ccccc1)c1cccnc1Cl	Succinate dehydrogenase complex (Sus scrofa, UniProt A5GZW8+D0VWV4+Q007T0+Q0QF01)	enzyme activity, double-antibody sandwich ELISA		8 µM		55%
CCCCCc1nc2ccc(/N=N/c3ccc([N+](=O)[O-])cc3)cc2c(-c2ccccc2)c1I	APP	amyloid aggregation, inhibitor, fluorescence		25 µM		~75%
CCCCCCc1cn(-c2cccc(C(=O)N[C@H]3CCOC3=O)c2)nn1	lasR	reporter gene, antagonist		10 µM, with: OdDHL 10 nM		21%

Some of these lines once more:
SMILES	target	assay	test system	conditions	scale	inhibition
CC1N=C(c2ccccc2F)c2cc(Nc3ccccc3C(F)(F)F)ccc2NC1=O (centres unmarked)	ADRA2A (Homo sapiens, UniProt P08913)	ligand displacement, radioligand		10 µM		24%
